Results gathered from unrelated publications.
Parts stem from different laboratories: compare values within a part only. Positions count from the first letter of the parent shown.

Sample 1 — method: RNA Bind-n-Seq; molecule type: RNA; medium: in vitro; tested at: 200 nM; notes: whole 134-nt RNA, ends assumed; together with: 150 mM KCl; reference: input library; direction: higher = stronger binding; measurement: log2 enrichment
Target: Fragile X messenger ribonucleoprotein 1, C-terminal low-complexity region (Fmr1, Mus musculus, UniProt P35922)
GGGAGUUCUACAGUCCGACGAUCUCCUGUGCUACACAUCGUAUGUACCGAAUCGGGGUUUGGGGUUUUUUUGGGGAAAGGGGAAAGUAUUAUGUUACGCCGUUCGGAUCUGCAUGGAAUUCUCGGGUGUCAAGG: 0.937
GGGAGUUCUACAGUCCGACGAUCUGCAGUCGAGCCAGCACCUGUUUCUGGACCUGCCUAAGGUAAGUGAGCUUUUCUCUCAACCUAGUUUUCAGGAGGCCUCUUCUGUCCCCUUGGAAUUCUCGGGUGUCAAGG: 0.113
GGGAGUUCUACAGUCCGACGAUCGCAGGAAGUAAAAACAAAUGGAAAUGCUUCGGAUAGUGGCAGGGGUGGGGGUUGCCAAGGAAAGGGUGGGAUGGGAGUGGGUAAAGAGUUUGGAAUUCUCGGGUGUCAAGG: 0.116
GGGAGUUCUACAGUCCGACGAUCCACAGACAACAGGCACCCACACAGACACAGAGGGAAGGGGUUGGGAUGGGGACAGGGUGCACAGCAGGGCGGGGUAGGACCCCAGCCCCUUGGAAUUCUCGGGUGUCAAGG: 0.826
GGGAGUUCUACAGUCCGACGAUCUGGCCCUGGUGGCAUGCGGGGAGGGAGAGGUGGCCUCAUGGAUCGUGGUGGUCCCGGUGGAAUGUUCAGAGGUGGCCGUGGUGGAGACAGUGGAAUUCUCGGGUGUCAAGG: 0.798
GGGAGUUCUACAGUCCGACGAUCCACAGACAACACGCACCCACACAGACACAGAGGGAAGGGAAAGGGAUGGGGACAGGGUGCACAGCAGGGCGGGGUAGGACCCCAGCCCCUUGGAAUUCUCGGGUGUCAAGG: 1.02
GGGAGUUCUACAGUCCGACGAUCUGGACCCGGAGCUGAUGCAGAAGUUCAGCUGCCUGGGCACCACCGACAAGGACGUGCUCAUCUCCGAGUUCCAGAGGCUGCUCGGCUUCCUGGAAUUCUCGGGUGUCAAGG: -0.582
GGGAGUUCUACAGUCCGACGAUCAGUCCUGUGCUACACAUCGUAUGUACCGAAUCGGGGAAAAAGGGGUGGGGAAAGGGGAAAGUAUUAUGUUACGCCGUUCGGAUCUGCACUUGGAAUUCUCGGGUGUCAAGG: 0.335
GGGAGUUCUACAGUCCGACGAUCAGUCCUGUGCUACACAUCGUAUGUACCGAAUCGGAAAGGUUUUUUUGGUUUUUUUGGAAAGUAUUAUGUUACGCCGUUCGGAUCUGCACUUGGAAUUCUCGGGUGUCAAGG: -1.33

Sample 2 — method: RNA Bind-n-Seq; molecule type: RNA; medium: in vitro; tested at: 100 nM; reference: input RNA pool; direction: higher = stronger binding; measurement: bound/input enrichment
Target: RING finger protein unkempt homolog, zinc fingers 1-6, SBP tag (UNK, Homo sapiens, UniProt Q9C0B0, residues 30-357)
Sequence of UniProt Q9C0B0 (30-357, looked up): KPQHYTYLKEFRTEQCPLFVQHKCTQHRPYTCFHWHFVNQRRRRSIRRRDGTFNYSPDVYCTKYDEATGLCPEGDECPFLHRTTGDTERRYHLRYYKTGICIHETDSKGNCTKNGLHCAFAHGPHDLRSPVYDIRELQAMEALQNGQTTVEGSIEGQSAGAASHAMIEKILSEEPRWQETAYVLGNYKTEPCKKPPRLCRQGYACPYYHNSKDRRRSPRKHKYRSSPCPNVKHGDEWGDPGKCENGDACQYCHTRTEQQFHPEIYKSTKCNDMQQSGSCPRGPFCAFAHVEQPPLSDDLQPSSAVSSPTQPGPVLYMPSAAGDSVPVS
Notes: RNA with constant flanks, vertebrate orthologous sites, ends assumed
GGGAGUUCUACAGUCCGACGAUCAGGGAUGGCCCCCAAUCCCACCUCUGUUUAUUCUGUAAACUGCAACCUAUAAAUAACCUUUAGCAUUCCUAUUGUAACAAAAUUAAUUUUUAUGAAAUAAAUUAUAUUUCCUAGUCUAAUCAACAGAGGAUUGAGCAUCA: 0.963 ratio
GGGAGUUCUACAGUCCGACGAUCGCUGUUGGUGAUUUGCAGAAACCUCAAUUCUGUCAGUGCAGAGUGCCCUGCACCCUGAAACUAGCUAUAGGAAUUUAAUAUUUUUAAAAGUUUUACAUUGCUGUAUAUUCAAAGAUUUGUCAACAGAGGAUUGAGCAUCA: 0.404 ratio
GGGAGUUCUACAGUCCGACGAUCACACACAAGAUAUUUUAACUGUUUUAAAGUUACAAACAUGCUUUGCUUUUUGCAUUUAAAUAGAAUACUUUUAUAUUUUAAGUACUUCAGAUGUGUGGAGUUGUUAGUUUGCUCUUAUAACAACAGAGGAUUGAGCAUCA: 0.704 ratio
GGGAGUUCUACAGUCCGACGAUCAUCUCUCAUUUUAUAUGUCCAAAAAAGGUUUUAAAUUUGUAAACACUUGCUAGUUUUAGUUAGCUCUGCCCUCAUAAAAGUAUUACUAUAAUUCACCACAAACAGAUAAUCUGUCUGAAUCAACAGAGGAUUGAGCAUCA: 0.896 ratio
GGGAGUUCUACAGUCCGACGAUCAUUCAAACCAGUGGUACCAUGGCCUCAUGUUGAAGGAGUAGAAGUGGACUUAGAGUCUAUUAGAAGAAAAAACAAGGCCAAAAAUGAACAAGAACACCAUGCUGGAGGAGAUUCCCAGAACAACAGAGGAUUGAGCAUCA: 0.337 ratio
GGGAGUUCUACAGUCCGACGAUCGGUUGAUGUUCUGAAGAACCACUUAGUAAAAGAAGGUCGGGUAGAUGAAGAAAUUGCACUUAGAAUUAUCAAUGAGGGUGCUGCCAUCCUUCGGAGAGAGAAAACCAUGAUAGAAGUAGACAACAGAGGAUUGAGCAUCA: 1.15 ratio
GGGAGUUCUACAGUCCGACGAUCUUCCCCGUUACCCCUAAAGUAGAACUUUUUAAAACUGUGUCACCACCACGUCUAAAAAUUUAGCAAUAUUAGAAGAAAACACUAAUGAAGUUCUGCUCAUUGUUUUGCAAACGAGAUAGACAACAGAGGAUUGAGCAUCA: 0.71 ratio
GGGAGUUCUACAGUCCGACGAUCGUAUCAGUCUCAUACCAGCAUUUAAUCUCUUGUCUGUGCACAGCUUCAAAUGUUACCGUCUAGUUAGAUUUUUAUUUAAAAUAUGAAAAACUGCUUUUCCCAAGACGUUUUUUAAAAUACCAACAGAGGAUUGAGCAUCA: 1.82 ratio

Sample 3 — target: CCNF, cyclin fold, Cln2 fusion (human); method: yeast growth competition, sequencing; medium: yeast; notes: strong parent motif; reference: not given; direction: higher = stronger binding; measurement: normalised enrichment score
Starting sequence: HIRA docking peptide (human); SLSKRKLELEVET
SLSKRKLEAEVET [L9A]: 0.0148
SLSKKKLEFEVET [R5K L9F]: 3.63
SLSKRKLELEAET [V11A]: 0.191
SLSKAKLELEVET [R5A]: -0.507
SLSKRKLELAVET [E10A]: 0.807
SLSKRKAELEVET [L7A]: -0.998
SLSKRKLELEVEA [T13A]: 2.2

Sample 4 — method: protein-binding microarray; molecule type: double-stranded DNA, one strand shown; medium: in vitro; tested at: 0.8 µM; notes: whole 60-bp probe, no competitor; direction: higher = stronger binding; measurement: fluorescence intensity
Target: Centromere-binding protein 1, full length, N-terminal tag (CBF1, Saccharomyces cerevisiae, UniProt P17106, residues 1-351)
Sequence of UniProt P17106 (whole entry, looked up): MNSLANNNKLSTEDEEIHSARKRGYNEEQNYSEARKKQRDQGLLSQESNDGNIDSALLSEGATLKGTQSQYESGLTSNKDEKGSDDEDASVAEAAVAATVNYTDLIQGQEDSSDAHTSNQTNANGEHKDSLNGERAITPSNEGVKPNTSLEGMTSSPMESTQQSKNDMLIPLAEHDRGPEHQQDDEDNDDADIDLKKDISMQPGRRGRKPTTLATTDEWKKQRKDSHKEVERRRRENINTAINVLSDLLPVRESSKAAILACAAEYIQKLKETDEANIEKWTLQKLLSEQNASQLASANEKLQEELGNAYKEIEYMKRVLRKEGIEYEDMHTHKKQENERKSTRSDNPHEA
GAACCCGGCCTGGACACCATCACCAACACTTCTTAGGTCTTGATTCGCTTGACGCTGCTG: 527 a.u.
CTACTCATAAAGCACGTGGCCTCTTATCGAGAATTCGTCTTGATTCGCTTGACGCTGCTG: 10100 a.u.
CTATACTATCCGTGAAGCGTGACCGGCCCTTCTTTCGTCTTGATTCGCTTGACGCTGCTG: 1160 a.u.
CTACTTTTGAGCTGTTGCATCATGCTGTTATTTTTCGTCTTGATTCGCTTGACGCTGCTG: 560 a.u.
GAAATGAGAAGAGAACACGTGAAGAACTTAGGGTAGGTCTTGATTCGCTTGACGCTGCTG: 3520 a.u.
CTACTGGTATAGTATCATATGAGATCTAGGAAGTTCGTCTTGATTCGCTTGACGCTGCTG: 571 a.u.
CTACGCGGAGTCGCTGATGACGCAATAGGCACATTCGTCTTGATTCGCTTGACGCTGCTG: 498 a.u.
GAATTAACATATTAGCACGGGGAGGCCGATGTTTAGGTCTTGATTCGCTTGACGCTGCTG: 606 a.u.
GAATGTTCTCTCTTTCACGTGATAAGGTTTGCATAGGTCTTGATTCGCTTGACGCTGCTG: 10100 a.u.
CTAAGAGTATACATACACGTTCTCAGGGAAAAGTTCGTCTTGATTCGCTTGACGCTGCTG: 599 a.u.
CCTAACTACTATAAACACGTGATATAGCTTCGTACAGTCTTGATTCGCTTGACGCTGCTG: 11900 a.u.
CCTAACTACTATAATCATGTCTCATAGCTTCGTACAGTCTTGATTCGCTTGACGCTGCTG: 551 a.u.
CTAGATCGTCAACAACTCGTGCATATTTTTTTGTTCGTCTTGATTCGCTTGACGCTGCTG: 629 a.u.
CCTAACTACTATAACCACCAATGATAGCTTCGTACAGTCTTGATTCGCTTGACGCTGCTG: 502 a.u.
CTACTGAATCCGATTCTGATGATGAAGAGGAAGTTCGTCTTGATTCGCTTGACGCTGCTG: 514 a.u.
TGTACGAAGCTATATGCACGTGCTATAGTAGTTAGGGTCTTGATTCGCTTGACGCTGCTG: 10800 a.u.
CCTAACTACTATAACCACGTACTATAGCTTCGTACAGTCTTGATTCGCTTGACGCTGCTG: 538 a.u.
GAAGGTCTGTCTGATCACATTTCCAAAGGCAATTAGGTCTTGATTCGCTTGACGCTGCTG: 641 a.u.
CTATAAAACCCCCACCACACCATAATAAGACGATTCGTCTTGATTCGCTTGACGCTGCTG: 486 a.u.

Repeated from above (sample 4):
CCTAACTACTATAAACACGTGATATAGCTTCGTACAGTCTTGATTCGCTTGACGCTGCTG: 11900 a.u.
CCTAACTACTATAATCATGTCTCATAGCTTCGTACAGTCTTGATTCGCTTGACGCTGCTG: 551 a.u.
CCTAACTACTATAACCACGTACTATAGCTTCGTACAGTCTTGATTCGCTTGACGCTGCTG: 538 a.u.
GAAGGTCTGTCTGATCACATTTCCAAAGGCAATTAGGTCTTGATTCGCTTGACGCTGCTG: 641 a.u.
CTAAGAGTATACATACACGTTCTCAGGGAAAAGTTCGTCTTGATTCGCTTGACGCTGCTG: 599 a.u.
